Results gathered from unrelated publications.
Each line is one published result; not all experiments were run side by side. Numbers after ± are the reported error. ≈ marks a conversion by molar mass, not a printed value.
Organism: Candida albicans

Structure (SMILES) | test | system | setting | endpoint | value
Cn1c(C23CC4CC(CC(C4)C2)C3)nn(CCN2CCCCC2)c1=S | – | IFO 0583 | 200 µg/disc, 48 h, 37 °C | inhibition zone diameter | < 10 mm
COc1ccc2c3c(oc2c1CC=C(C)C)-c1cc(CC=C(C)C)c(O)cc1OC3 | – | ATCC 10231 | concentration not given | antibacterial activity | inactive
N=C(N)NCCC[C@@H]1NC(=O)[C@H](CCCNC(=N)N)NC(=O)[C@H](CCCNC(=N)N)NC(=O)[C@H](Cc2ccc3ccccc3c2)NC(=O)[C@H](Cc2c[nH]c3ccccc23)NC(=O)[C@H](Cc2ccc3ccccc3c2)NC(=O)[C@H](CCCNC(=N)N)NC1=O | XTT | ATCC 60193 | MIC | biofilm mass reduction | 31 to 39%
COc1ccc(/N=N/C(=S)N2CCCCC2)cc1 | microbial growth | ATCC10231 | 24 h | IC50 | > 50 µM
COc1c(CC=C(C)C)c(O)cc2c1-c1oc3c(CC=C(C)C)c(O)ccc3c1CO2 | – | ATCC 10231 | concentration not given | antibacterial activity | inactive
CN(C)CCn1nc(C23CC4CC(CC(C4)C2)C3)n(C)c1=S | – | IFO 0583 | 200 µg/disc, 48 h, 37 °C | inhibition zone diameter | < 10 mm
CC(=O)[O-].O.O.O.O.[Mn+2].[O-]c1ccc(Br)cc1C=NCCN1CCOCC1 | – | – | 20 µL of 100 µM per disc | inhibition zone diameter | 16 mm
NS(=O)(=O)c1ccc(-n2c(SCC(=O)Nc3ccc([N+](=O)[O-])cc3[N+](=O)[O-])nc3ccccc3c2=O)cc1 | microbial growth, well diffusion | ATCC10231 | 500 µg/mL, 72 h | inhibition zone | 24 mm
C[C@@H](c1ccn(Cc2ccc(F)c(F)c2)n1)[C@](O)(Cn1cnnn1)c1ccc(F)cc1F | growth, broth microdilution | SC5314 | 24 h, 30 °C, ≥50% inhibition | MIC | < 0.008 µg/mL
CC(=NNC(=N)N)c1nnn(-c2ccc(C#CC3(O)CCCCC3)cc2)c1C | – | ATCC 10231 | concentration not given | inhibition zone diameter | 37.7 ± 0.47 mm
C[C@@H](c1ccn(Cc2ccc(C#N)cc2)n1)[C@](O)(Cn1cnnn1)c1ccc(F)cc1F | growth, broth microdilution | SC5314 | 24 h, 30 °C, ≥50% inhibition | MIC | 0.016 µg/mL (≈ 0.0367 µM)
CCCCCCCCCC1CC2CCC3CC(CCCCCCCCC)NC(=N1)N23 (stereo not shown) | fungal growth | ATCC 90028 | – | MFC | 5.99 µM (≈ 2.5 µg/mL)
C[C@@H](c1ccn(Cc2cc(F)cc(F)c2)n1)[C@](O)(Cn1cnnn1)c1ccc(F)cc1F | growth, broth microdilution | SC5314 | 24 h, 30 °C, ≥50% inhibition | MIC | < 0.008 µg/mL
S=c1n(CN2CCN(c3ccccn3)CC2)nc(C23CC4CC(CC(C4)C2)C3)n1-c1ccccc1 | microbial growth, disc diffusion | IFO0583 | 200 µg/disc, 48 h | inhibition zone | 13 mm
CCOc1ccc(NC(=O)CSc2nc3ccccc3c(=O)n2-c2ccc(S(N)(=O)=O)cc2)cc1 | microbial growth, well diffusion | ATCC10231 | 500 µg/mL, 72 h | inhibition zone | 26 mm
S=c1n(CN2CCN(Cc3ccccc3)CC2)nc(C23CC4CC(CC(C4)C2)C3)n1-c1ccccc1 | – | IFO 0583 | 200 µg/disc, 48 h, 37 °C | inhibition zone diameter | < 10 mm
C[C@@H](c1ccn(Cc2cccc(Cl)c2F)n1)[C@](O)(Cn1cnnn1)c1ccc(F)cc1F | growth, broth microdilution | SC5314 | 24 h, 30 °C, ≥50% inhibition | MIC | < 0.008 µg/mL

Structure (SMILES) | test | system | setting | endpoint | value
NS(=O)(=O)c1ccc(-n2c(S)nc3ccccc3c2=O)cc1 | microbial growth, well diffusion | ATCC10231 | 500 µg/mL, 72 h | inhibition zone | 14 mm
Clc1ccc(CSc2nnc(C34CC5CC(CC(C5)C3)C4)n2-c2ccccc2)cc1 | – | IFO 0583 | 200 µg/disc, 48 h, 37 °C | inhibition zone diameter | < 10 mm
C[C@@H](c1ccn(Cc2cccc(F)c2F)n1)[C@](O)(Cn1cnnn1)c1ccc(F)cc1F | growth, broth microdilution | SC5314 | 24 h, 30 °C, ≥50% inhibition | MIC | < 0.008 µg/mL
COc1ccc2c(c1CC=C(C)C)O[C@H]1c3cc4c(cc3OC[C@@]21O)OC(C)(C)C=C4 | – | ATCC 10231 | concentration not given | antibacterial activity | inactive
Cn1c(SCCN2CCCCC2)nnc1C12CC3CC(CC(C3)C1)C2 | – | IFO 0583 | 200 µg/disc, 48 h, 37 °C | inhibition zone diameter | < 10 mm
Cc1ccccc1C=NNC(=O)c1ccc(-c2nc3cc(F)ccc3[nH]2)cc1 | microbial growth | ATCC24433 | – | MIC90 | > 1000 µg/mL
COc1ccc(/N=N/C(=S)N2CCN(C)CC2)cc1 | microbial growth | ATCC10231 | 24 h | IC50 | > 50 µM
c1ccc(CSc2nnc(C34CC5CC(CC(C5)C3)C4)n2-c2ccccc2)cc1 | – | IFO 0583 | 200 µg/disc, 48 h, 37 °C | inhibition zone diameter | < 10 mm
C[C@@H](c1ccn(Cc2c(F)cc(Cl)cc2F)n1)[C@](O)(Cn1cnnn1)c1ccc(F)cc1F | growth, broth microdilution | SC5314 | 24 h, 30 °C, ≥50% inhibition | MIC | < 0.008 µg/mL
Cc1cc([N+](=O)[O-])ccc1NC(=O)CSc1nc2ccccc2c(=O)n1-c1ccc(S(N)(=O)=O)cc1 | microbial growth, well diffusion | ATCC10231 | 500 µg/mL, 72 h | inhibition zone | 27 mm
CC(C)=CCc1c(O)ccc2c1O[C@H]1c3cc4c(cc3OC[C@@H]21)OC(C)(C)C=C4 | – | ATCC 10231 | concentration not given | antibacterial activity | inactive
S=c1n(CN2CCN(c3ccccc3)CC2)nc(C23CC4CC(CC(C4)C2)C3)n1-c1ccccc1 | – | IFO 0583 | 200 µg/disc, 48 h, 37 °C | inhibition zone diameter | < 10 mm
COc1cc(NC(=O)CSc2nc3ccccc3c(=O)n2-c2ccc(S(N)(=O)=O)cc2)cc(OC)c1OC | microbial growth, well diffusion | ATCC10231 | 500 µg/mL, 72 h | inhibition zone | 14 mm
C[C@@H](c1ccn(Cc2ccc(OC(F)(F)F)cc2)n1)[C@](O)(Cn1cnnn1)c1ccc(F)cc1F | growth, broth microdilution | SC5314 | 24 h, 30 °C, ≥50% inhibition | MIC | < 0.008 µg/mL
CCCCCC1CC2CCCC3CC(C)N=C(N1)N32 (stereo not shown) | fungal growth | ATCC 90028 | – | MFC | 31.7 µM (≈ 8.36 µg/mL)
C[C@@H](c1ccn(Cc2ccc(F)c(C(F)(F)F)c2)n1)[C@](O)(Cn1cnnn1)c1ccc(F)cc1F | growth, broth microdilution | SC5314 | 24 h, 30 °C, ≥50% inhibition | MIC | 0.0625 µg/mL (≈ 0.126 µM)
O=c1c2ccccc2sn1-c1cc(Br)cc(Br)c1 | growth, broth dilution | ATCC MYA-2310 (susceptible) | MIC-0 | MIC | 6.25 µg/mL (≈ 16.2 µM)

Some of these lines once more:
Structure (SMILES) | test | system | setting | endpoint | value
Cc1cc([N+](=O)[O-])ccc1NC(=O)CSc1nc2ccccc2c(=O)n1-c1ccc(S(N)(=O)=O)cc1 | microbial growth, well diffusion | ATCC10231 | 500 µg/mL, 72 h | inhibition zone | 27 mm
CC(C)=CCc1c(O)ccc2c1O[C@H]1c3cc4c(cc3OC[C@@H]21)OC(C)(C)C=C4 | – | ATCC 10231 | concentration not given | antibacterial activity | inactive
